# Results from different studies.
# Protocols differ between the studies behind these lines. ± gives the spread as reported. Non-standard residues stand in square brackets, D forms with d. *: point of attachment.
# Ryanodine receptor 1: Ryanodine receptor 1 (Oncorhynchus mykiss, UniProt A0A8C7UX14)
# CNR1: Cannabinoid receptor 1 (CNR1, Homo sapiens, UniProt P21554)
# Chain of UniProt P21554 (whole entry, looked up): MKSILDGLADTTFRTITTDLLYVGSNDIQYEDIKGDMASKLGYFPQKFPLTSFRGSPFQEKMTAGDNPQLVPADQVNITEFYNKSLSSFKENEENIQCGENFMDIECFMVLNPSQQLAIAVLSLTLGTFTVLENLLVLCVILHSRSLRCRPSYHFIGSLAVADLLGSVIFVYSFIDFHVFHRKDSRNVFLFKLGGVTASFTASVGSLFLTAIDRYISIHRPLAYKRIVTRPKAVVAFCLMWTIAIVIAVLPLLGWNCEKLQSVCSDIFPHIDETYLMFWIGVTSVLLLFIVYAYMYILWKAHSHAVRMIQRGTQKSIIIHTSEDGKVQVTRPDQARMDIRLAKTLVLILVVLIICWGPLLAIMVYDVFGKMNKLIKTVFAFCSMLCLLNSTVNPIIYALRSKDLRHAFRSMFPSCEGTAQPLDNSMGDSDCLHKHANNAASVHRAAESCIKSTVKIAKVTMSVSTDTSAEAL
# OPRD1: Delta-type opioid receptor (OPRD1, Homo sapiens, UniProt P41143)
# Chain of UniProt P41143 (whole entry, looked up): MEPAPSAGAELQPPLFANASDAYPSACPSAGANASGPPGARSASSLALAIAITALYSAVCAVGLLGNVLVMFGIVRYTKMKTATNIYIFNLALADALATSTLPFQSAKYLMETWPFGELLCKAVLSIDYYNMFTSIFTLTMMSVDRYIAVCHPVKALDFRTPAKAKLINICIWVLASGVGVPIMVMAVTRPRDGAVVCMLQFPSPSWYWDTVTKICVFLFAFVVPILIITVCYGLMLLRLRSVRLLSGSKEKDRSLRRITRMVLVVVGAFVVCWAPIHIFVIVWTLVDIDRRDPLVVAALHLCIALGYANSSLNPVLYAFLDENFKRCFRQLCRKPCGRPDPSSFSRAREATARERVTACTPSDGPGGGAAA
# B1: N-acetyl, Nle1, C-ACC; Nle = CCCC[C@H](N)C(=O)O; ACC = NC(=O)Cc1cc(=O)oc2cc(N*)ccc12; chain Ac-[Nle]KPR-{ACC} (SMILES CCCC[C@H](NC(C)=O)C(=O)N[C@@H](CCCCN)C(=O)N1CCC[C@H]1C(=O)N[C@@H](CCCNC(=N)N)C(=O)Nc1ccc2c(CC(N)=O)cc(=O)oc2c1)
# Chain of UniProt P18508 (whole entry, unmodified, looked up): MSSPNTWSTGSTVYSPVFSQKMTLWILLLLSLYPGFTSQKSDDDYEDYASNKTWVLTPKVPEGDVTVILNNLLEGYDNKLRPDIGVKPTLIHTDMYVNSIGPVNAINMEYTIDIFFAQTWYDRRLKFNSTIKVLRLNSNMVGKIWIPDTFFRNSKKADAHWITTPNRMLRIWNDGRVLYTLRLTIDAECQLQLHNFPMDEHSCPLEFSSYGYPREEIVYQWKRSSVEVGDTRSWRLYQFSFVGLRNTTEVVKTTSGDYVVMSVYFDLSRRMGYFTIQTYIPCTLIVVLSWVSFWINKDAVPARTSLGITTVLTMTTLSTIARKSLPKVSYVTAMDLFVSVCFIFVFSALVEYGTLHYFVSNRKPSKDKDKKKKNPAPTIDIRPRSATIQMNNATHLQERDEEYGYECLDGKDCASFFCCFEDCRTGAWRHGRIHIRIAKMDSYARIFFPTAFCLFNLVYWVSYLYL
# Chain of UniProt Q7Z1V1 (whole entry, looked up): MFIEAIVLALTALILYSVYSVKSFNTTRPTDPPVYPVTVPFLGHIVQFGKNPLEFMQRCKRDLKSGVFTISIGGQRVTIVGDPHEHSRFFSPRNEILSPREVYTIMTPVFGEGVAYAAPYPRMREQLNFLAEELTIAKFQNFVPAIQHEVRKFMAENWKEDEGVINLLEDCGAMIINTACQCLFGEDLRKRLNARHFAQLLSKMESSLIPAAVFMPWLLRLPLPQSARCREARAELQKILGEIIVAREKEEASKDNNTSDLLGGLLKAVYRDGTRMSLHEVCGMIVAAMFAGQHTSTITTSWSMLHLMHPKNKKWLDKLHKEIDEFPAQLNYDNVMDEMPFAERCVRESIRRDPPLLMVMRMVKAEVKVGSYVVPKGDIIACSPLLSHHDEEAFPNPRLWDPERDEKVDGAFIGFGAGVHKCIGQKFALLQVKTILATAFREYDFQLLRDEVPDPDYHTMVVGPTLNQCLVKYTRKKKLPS
# Chain of UniProt P47870 (whole entry, unmodified, looked up): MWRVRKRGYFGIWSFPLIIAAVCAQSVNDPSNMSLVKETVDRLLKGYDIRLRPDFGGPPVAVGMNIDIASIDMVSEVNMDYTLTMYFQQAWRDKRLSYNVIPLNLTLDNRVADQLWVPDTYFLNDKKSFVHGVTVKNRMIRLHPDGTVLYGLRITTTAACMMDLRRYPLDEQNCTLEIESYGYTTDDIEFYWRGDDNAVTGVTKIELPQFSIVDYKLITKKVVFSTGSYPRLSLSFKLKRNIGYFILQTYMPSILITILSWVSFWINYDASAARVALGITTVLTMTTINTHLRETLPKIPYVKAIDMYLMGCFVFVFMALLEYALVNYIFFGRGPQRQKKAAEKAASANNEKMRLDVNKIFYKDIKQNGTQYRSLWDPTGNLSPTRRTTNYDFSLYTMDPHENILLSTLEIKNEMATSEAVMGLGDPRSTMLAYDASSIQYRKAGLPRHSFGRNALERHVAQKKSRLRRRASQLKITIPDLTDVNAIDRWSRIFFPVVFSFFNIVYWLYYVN
# Chain of UniProt P94556 (whole entry, unmodified, looked up): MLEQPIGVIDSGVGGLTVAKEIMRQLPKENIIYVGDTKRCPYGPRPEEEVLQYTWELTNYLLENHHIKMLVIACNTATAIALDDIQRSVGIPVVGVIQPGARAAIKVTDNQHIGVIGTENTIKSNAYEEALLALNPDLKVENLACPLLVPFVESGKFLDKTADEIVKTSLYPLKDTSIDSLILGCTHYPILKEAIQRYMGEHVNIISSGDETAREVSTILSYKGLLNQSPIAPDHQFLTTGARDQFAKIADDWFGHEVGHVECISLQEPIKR
# Chain of UniProt Q8NKB0 (whole entry, unmodified, looked up): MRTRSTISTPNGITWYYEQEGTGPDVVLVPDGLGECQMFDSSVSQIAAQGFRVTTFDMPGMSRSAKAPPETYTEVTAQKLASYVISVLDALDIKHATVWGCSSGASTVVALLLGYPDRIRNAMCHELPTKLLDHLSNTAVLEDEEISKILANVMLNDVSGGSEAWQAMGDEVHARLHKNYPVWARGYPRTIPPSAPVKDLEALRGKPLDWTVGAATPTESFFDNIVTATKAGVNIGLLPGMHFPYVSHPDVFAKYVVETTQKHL
# Chain of UniProt Q6P179 (whole entry, unmodified, looked up): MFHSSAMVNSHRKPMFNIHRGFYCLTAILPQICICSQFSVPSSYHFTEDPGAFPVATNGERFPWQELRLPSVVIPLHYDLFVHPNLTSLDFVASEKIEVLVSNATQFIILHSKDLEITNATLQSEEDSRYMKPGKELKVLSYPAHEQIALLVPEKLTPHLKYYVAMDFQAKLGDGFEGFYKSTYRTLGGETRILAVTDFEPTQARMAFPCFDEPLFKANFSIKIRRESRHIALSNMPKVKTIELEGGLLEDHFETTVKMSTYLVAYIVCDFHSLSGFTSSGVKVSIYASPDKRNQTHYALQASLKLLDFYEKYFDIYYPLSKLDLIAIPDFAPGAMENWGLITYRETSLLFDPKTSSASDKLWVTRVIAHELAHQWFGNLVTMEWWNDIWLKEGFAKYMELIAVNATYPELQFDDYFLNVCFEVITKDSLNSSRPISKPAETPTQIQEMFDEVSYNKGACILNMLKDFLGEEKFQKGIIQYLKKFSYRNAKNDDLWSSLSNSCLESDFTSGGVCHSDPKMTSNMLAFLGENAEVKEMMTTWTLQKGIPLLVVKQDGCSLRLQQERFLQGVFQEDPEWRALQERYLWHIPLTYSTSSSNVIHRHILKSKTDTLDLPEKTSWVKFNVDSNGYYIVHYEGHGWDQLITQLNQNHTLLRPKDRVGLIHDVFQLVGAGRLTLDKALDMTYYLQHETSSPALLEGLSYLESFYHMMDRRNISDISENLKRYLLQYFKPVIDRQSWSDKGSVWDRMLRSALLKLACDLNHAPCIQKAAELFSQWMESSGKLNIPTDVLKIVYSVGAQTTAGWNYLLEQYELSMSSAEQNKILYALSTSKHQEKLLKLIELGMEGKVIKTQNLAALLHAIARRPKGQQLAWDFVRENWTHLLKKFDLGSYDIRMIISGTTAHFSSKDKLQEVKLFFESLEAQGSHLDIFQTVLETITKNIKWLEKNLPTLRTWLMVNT
# Chain of UniProt Q03519 (whole entry, looked up): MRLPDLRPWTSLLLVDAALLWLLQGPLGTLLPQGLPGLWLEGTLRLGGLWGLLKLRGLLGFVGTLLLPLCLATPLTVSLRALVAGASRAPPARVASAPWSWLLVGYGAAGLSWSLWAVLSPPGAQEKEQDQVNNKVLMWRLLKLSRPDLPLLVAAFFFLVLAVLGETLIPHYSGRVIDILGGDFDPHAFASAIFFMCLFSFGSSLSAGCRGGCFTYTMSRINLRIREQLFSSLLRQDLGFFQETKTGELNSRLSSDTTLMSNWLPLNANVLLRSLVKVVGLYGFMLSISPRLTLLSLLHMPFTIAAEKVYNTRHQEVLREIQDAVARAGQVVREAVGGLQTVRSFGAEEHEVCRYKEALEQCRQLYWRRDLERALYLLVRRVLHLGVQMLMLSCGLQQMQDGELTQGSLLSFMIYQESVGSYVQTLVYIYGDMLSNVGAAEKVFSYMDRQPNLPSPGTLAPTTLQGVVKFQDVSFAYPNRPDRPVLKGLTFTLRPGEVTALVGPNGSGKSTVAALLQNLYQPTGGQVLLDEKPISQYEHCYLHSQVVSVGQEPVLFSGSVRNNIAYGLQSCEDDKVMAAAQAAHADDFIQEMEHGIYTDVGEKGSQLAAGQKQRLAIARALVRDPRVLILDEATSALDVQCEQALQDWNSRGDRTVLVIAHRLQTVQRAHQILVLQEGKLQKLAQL
# Chain of UniProt P54292 (whole entry, looked up): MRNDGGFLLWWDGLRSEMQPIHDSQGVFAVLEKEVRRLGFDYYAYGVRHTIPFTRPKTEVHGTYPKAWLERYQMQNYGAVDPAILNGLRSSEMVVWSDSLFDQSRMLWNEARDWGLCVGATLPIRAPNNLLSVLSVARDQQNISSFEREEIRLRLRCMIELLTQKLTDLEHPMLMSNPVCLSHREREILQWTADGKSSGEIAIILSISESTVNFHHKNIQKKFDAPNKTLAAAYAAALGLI
Molecule,tested on,test,test system,conditions,how to read,measurement,result
O=C(OCC1CCN(CCCc2ccccc2)CC1)c1ccccc1-c1ccccc1,"Neuronal acetylcholine receptor; alpha4/beta2 (Homo sapiens, UniProt P17787+P43681)",,,concentration not given,reference: amide analogue over parent scaffold,potency fold change,1.4
TVNKTES (O-β-GlcNAc),"Antigen peptide transporter 1/Antigen peptide transporter 2 (Homo sapiens, UniProt Q03518+Q03519)",substrate,"peptide, streptolysin O-permeabilised LCL721 cells",concentration not given,reference: control peptide,translocation,40 to 50%
CC[C@H](C)[C@H](NC(=O)[C@H](C)NC(=O)CNC(=O)[C@H](Cc1ccccc1)NC(=O)[C@H](CC(N)=O)NC(=O)[C@H](CC(N)=O)NC(=O)[C@H](CO)NC(=O)[C@H](CO)NC(=O)[C@H](Cc1c[nH]cn1)NC(=O)[C@@H](NC(=O)[C@H](CC(C)C)NC(=O)[C@H](Cc1ccccc1)NC(=O)[C@H](CC(N)=O)NC(=O)[C@H](C)NC(=O)[C@H](CC(C)C)NC(=O)[C@H](CCCNC(=N)N)NC(=O)[C@H](CCC(N)=O)NC(=O)[C@@H](NC(=O)[C@H](C)NC(=O)[C@@H]1CSSC[C@H](NC(=O)[C@@H](N)CCCCN)C(=O)N[C@@H](CC(N)=O)C(=O)N[C@@H]([C@@H](C)O)C(=O)N[C@@H](C)C(=O)N[C@@H]([C@@H](C)O)C(=O)N1)[C@@H](C)O)C(C)C)C(=O)N[C@@H](CC(C)C)C(=O)N[C@@H](CO)C(=O)N[C@@H](CO)C(=O)N[C@H](C(=O)N[C@@H](CC(N)=O)C(=O)N[C@H](C(=O)NCC(=O)N[C@@H](CO)C(=O)N[C@@H](CC(N)=O)C(=O)N[C@H](C(=O)N[C@@H](Cc1ccc(O)cc1)C(N)=O)[C@@H](C)O)C(C)C)[C@@H](C)O,"Neprilysin (MME, Homo sapiens, UniProt P08473)","substrate, HPLC",,"20 µM, 37 °C",,cleavage rate,0.01 ± 0.002 nmol/min/µg
copper-phenanthroline,"Gabrg2/GABRB2/Gabra1 (Rattus norvegicus, UniProt P18508+P47870+P62813, C260A/C282A/C312A/C319A/C341A/N289C/T249C)",two-electrode voltage clamp,Xenopus oocytes,"100 µM with phenanthroline 200 µM, 2 min, after DTT, added: GABA 1 mM","reference: initial response, vs Cys-less receptor",GABA current change,decreased
CC[C@H](C)[C@H](NC(=O)[C@H](C)NC(=O)[C@H](CO)NC(=O)[C@@H](NC(=O)[C@H](CCC(=O)O)NC(=O)[C@H](CCC(=O)O)NC(=O)[C@H](CCC(N)=O)NC(=O)[C@H](CCCCN)NC(=O)[C@H](CCCNC(=N)N)NC(=O)[C@@H](N)CCCCN)C(C)C)C(=O)N[C@H](C(=O)N[C@H](C(=O)N[C@@H](CCC(N)=O)C(=O)N[C@@H](CCCNC(=N)N)C(=O)N[C@@H](C)C(=O)N[C@@H](Cc1ccc(O)cc1)C(=O)N[C@@H](CCCNC(=N)N)C(=O)N[C@@H](CCCNC(=N)N)C(=O)N[C@@H](Cc1ccc(O)cc1)C(=O)N[C@@H](CC(C)C)C(=O)N[C@@H](CC(C)C)C(=O)N[C@@H](CCCCN)C(=O)N[C@@H](CCC(N)=O)C(=O)N[C@@H](CCCCN)C(=O)N[C@H](C(=O)N[C@@H](CCCCN)C(=O)N[C@@H](CCCCN)C(=O)O)C(C)C)[C@@H](C)CC)C(C)C,"Calmodulin, C-terminal domain (CAM, Paramecium tetraurelia, UniProt P07463)",,,"3 to 1 µM, pH 7.4, 22 °C, Ca2+-bound CaM residues 76-148",reference: peptide alone,fluorescence emission increase,17%
Cc1cn([C@H]2C[C@H](O)[C@@H](COP(=O)(O)OP(=O)(O)OP(=O)(O)O)O2)c(=O)[nH]c1=O,"DNA polymerase IV, with DNA (dbh, Saccharolobus solfataricus, UniProt Q97W02)","nucleotide incorporation opposite dC, single-turnover extension of lesion bypass product",,"lesion bypass extension, added: 21/26-mer dG-C8-N-ABA primer-template",,misincorporation frequency,1.6%
O=C(Cc1cccc(F)c1)NC1CCOC1=O (centres unmarked),"rhlR (Pseudomonas aeruginosa, UniProt P54292)","reporter gene, agonist",Escherichia coli reporter strain,100 µM,reference: BHL 900 µM,activation,79%
C[C@H]1CCCC(=O)CCC/C=C/c2cc(O)cc(O)c2C(=O)O1,"zhd101 (Clonostachys rosea, UniProt Q8NKB0, V158H)","substrate, HPLC",,"10 min, pH 5.5, 37 °C, 1% acetonitrile",,Km,17 ± 1.16 mM
Cc1ccc2cccc(S(=O)(=O)N3CC(c4nc(-c5ccc(F)cc5)no4)C3)c2n1,"Calcium-activated potassium channel subunit alpha-1, with beta-3 subunit (KCNMA1, Homo sapiens, UniProt Q12791)",,HEK293,30 µM,,activity,inactive
Clc1cc(-c2cc(Cl)c(Cl)c(Cl)c2Cl)c(Cl)c(Cl)c1Cl,Ryanodine receptor 1,[3H]ryanodine binding,"rainbow trout, skeletal muscle microsomes",up to 20 µM,reference: DMSO,Emax,130 ± 2.99%
COC1=C(OC)C(=O)C(CC=C(C)C)=C(C)C1=O,"Type II NADH dehydrogenase (Plasmodium falciparum, UniProt Q8I302)","enzyme activity, substrate",,added: co-substrate 500 µM,,kcat,0.015 ± 0.00167 s⁻¹
COc1cc2cc(c1Cl)N(C)C(=O)C[C@H](OC(=O)[C@H](C)N(C)C(=O)CCSC)[C@]1(C)O[C@H]1[C@H](C)[C@@H]1C[C@@](O)(NC(=O)O1)[C@H](OC)/C=C/C=C(\C)C2,"microtubules, MAP-rich (bovine)",,,,reference: microtubule sites over soluble tubulin,affinity ratio,9 fold
WLRRYLENGK,"ERAP2 (Homo sapiens, UniProt Q6P179, K392N)","substrate, RP-HPLC",peptide,"pH 7.0, 37 °C, added: 20 µM precursor",,trimming rate,330 ± 34 pmol/nmol/s
Cc1cc(Oc2cccc(Cn3ccnc3)c2)cc(C)c1Cl,"CYP51 (Trypanosoma cruzi, UniProt Q7Z1V1)",inhibitor,,"1 h, two-fold inhibitor over enzyme",,substrate conversion,7.5%
CC(C)(C#N)CCCn1nc(C(=O)NC(C)(C)c2cccc(C(N)=O)c2)c2ccccc21,CNR1,"calcium mobilization, agonist",CHO-K1 expressing Gαq16,,"reference: CP55,940 maximum",Emax,94 ± 2%
CN[C@@](C)(C[18F])C(=O)O,,,"SCID mouse SK-OV-3 xenograft, brain","120 min, post injection",,tissue uptake,0.2 ± 0.1 %ID/g
O=S(=O)(O)c1nc2ccccc2[nH]1,"racE (Bacillus subtilis, UniProt P94556, N75A)","enzyme activity, inhibitor",,,,binding free energy,-4.66 kcal/mol
B1,"PROC (Homo sapiens, UniProt P04070)","substrate, fluorogenic ACC release",,"30 min, pH 7.4, 37 °C",,kcat/Km,3160 ± 80 M⁻¹ s⁻¹
N.N.O=C([O-])C1(C(=O)[O-])CCC1.[Pt+2],"Alpha-synuclein, oligomers (SNCA, Homo sapiens, UniProt P37840)","oligomer-vesicle binding, FIDA",,"5 µM, added: 150 nM oligomers, 50 µM DOPG liposomes",reference: untreated,reduction in bound oligomers,15 to 20%
Clc1cc(Cl)c(-c2c(Cl)ccc(Cl)c2Cl)cc1Cl,Ryanodine receptor 1,[3H]ryanodine binding,"rainbow trout, skeletal muscle microsomes",,,EC20,450 nM
C[C@H]1O[C@@H](n2cnc3c(N)ncnc32)[C@H](O)[C@@H]1O,"bioB (Escherichia coli, UniProt P12996)","enzyme activity, inhibitor",,500 µM,,remaining activity,45%
CC(C)[C@@H](CN1CCN(c2cccc(O)c2)[C@@H](C)C1)NC(=O)c1ccc(Oc2ccc(O)cc2)cc1,OPRD1,antagonist,CHO,added: DPDPE,,Ke,1700 ± 380 nM
COc1cc(/C=C/C(=O)CC(=O)/C=C/c2ccc(O)c(OC)c2)ccc1O,"Protein kinase C theta type, C1B domain (Mus musculus, UniProt Q02111)",,buffer,"5×1 µM, 1 h, 25 °C, protein excess",,emission maximum,561 nm
C=C(CC[C@@H](C)[C@H]1CC[C@H]2C3=C(C(=O)C[C@]12C)[C@@]1(C)CC[C@@H](O)[C@](C)(O)[C@@H]1C[C@@H]3O)C(C)C(=O)O (some centres unmarked),"Peroxisome proliferator-activated receptor alpha (Rattus norvegicus, UniProt P37230)","reporter gene, agonist",CHO-K1,200 µM,,induction,5.7
C#Cc1cccc2c1[nH]c1cnc(C(=O)OC(C)(C)C)cc12,"Gabrg2/Gabra3, with β3 subunit (Rattus norvegicus, UniProt P18508+P20236)",GABA current modulation,Xenopus oocytes,10 to 100 nM,reference: α3 over α1 GABAA,selectivity ratio,10 to 100 fold
C=CC(=O)NCCCC[C@H](NC(=O)OCc1ccccc1)C(=O)NCCOCCOCCNS(=O)(=O)c1cccc2c(N(C)C)cccc12,"TGM2 (Homo sapiens, UniProt P21980)",,,pH 6.5,,kinact,0.0433 ± 0.00283 s⁻¹
CC(C)[C@@H](CN1CCN(c2cccc(O)c2)[C@@H](C)C1)NC(=O)c1ccc(Oc2ccccc2)cc1,OPRD1,antagonist,CHO,added: DPDPE,,Ke,570 ± 79 nM
CCc1nn2c(=O)cc(N3CCNCC3)nc2s1,"Integrin alpha-IIb/beta-3 (Homo sapiens, UniProt P05106+P08514)","activator, refers to: fluorescent fibrinogen binding",human platelets,100 µM,reference: no agent,fibrinogen-binding platelets,8 ± 3%
CO[C@@H]1[C@@H]2OP(=O)(O)OC[C@H]3O[C@@H](n4cnc5c(N)ncnc54)[C@H](OC)[C@@H]3OP(=O)(O)OC[C@H]2O[C@H]1n1cnc2c(N)ncnc21,"gdpP, residues 84-659 (Bacillus subtilis, UniProt P37484)","substrate, HPLC",,"100 µM, 37 °C, upper limit if undegraded 24 h, added: enzyme 1 µM",,degradation rate,≤ 0.001 mol/min/mol enzyme
CC(C)(C)OC(=O)c1ncn2c1[C@@H]1CCCN1C(=O)c1c(Br)cccc1-2,"Gabrg2/Gabra4, with β3 subunit (Rattus norvegicus, UniProt P18508+P28471)","GABA-induced chloride current, two-electrode voltage clamp",Xenopus oocytes,"rat α4β3γ2 receptor, added: GABA EC3",reference: GABA EC3 alone,Emax,395 ± 8%
CC(C)(NC(=O)c1nn(Cc2ccc(F)cc2)c2ccccc12)C1CCCN(C(N)=O)C1 (centres unmarked),CNR1,"calcium mobilization, agonist",CHO-K1 expressing Gαq16,,"reference: CP55,940 maximum",Emax,75 ± 5%
CN(C(=O)n1cnc(-c2ccc[n+]([O-])c2)c1)C1CCCCC1,"Faah (Mus musculus, UniProt O08914)","enzyme activity, ex vivo","mouse, brain","oral, 0.1 mg/kg, 48 h",reference: vehicle,remaining activity,41.8%

# Excerpt of the above:
Molecule,tested on,test,test system,conditions,how to read,measurement,result
O=C(OCC1CCN(CCCc2ccccc2)CC1)c1ccccc1-c1ccccc1,"Neuronal acetylcholine receptor; alpha4/beta2 (Homo sapiens, UniProt P17787+P43681)",,,concentration not given,reference: amide analogue over parent scaffold,potency fold change,1.4
C=CC(=O)NCCCC[C@H](NC(=O)OCc1ccccc1)C(=O)NCCOCCOCCNS(=O)(=O)c1cccc2c(N(C)C)cccc12,"TGM2 (Homo sapiens, UniProt P21980)",,,pH 6.5,,kinact,0.0433 ± 0.00283 s⁻¹
CCc1nn2c(=O)cc(N3CCNCC3)nc2s1,"Integrin alpha-IIb/beta-3 (Homo sapiens, UniProt P05106+P08514)","activator, refers to: fluorescent fibrinogen binding",human platelets,100 µM,reference: no agent,fibrinogen-binding platelets,8 ± 3%
